Measurements gathered from unrelated publications.
Protocols differ between the studies behind these lines. Numbers after ± are the reported error.
Cell line: DU-145

O=C(N=P12CN3CN(CN(C3)C1)C2)c1cccc[c]1[Pd][Br].c1cncc(P(c2cccnc2)c2cccnc2)c1  IC50 (cell growth or viability, MTT; 24 h): 299 µM
O=C(N=P12CN3CN(CN(C3)C1)C2)c1ccccn1.[Cl][Au+][Cl].[O-][Cl+3]([O-])([O-])[O-]  IC50 (cell growth or viability, MTT; 24 h): 17.4 µM
CC1(CCCOC2C(CO)OC(O)C(O)C2O)C(=O)[O][Pt][O]C1=O.NC1CCCCC1N (mixture of isomers)  IC50 (cytotoxicity, MTT; 7.5 h plus 64 h recovery): 18 ± 2 µM
CC[C@H](C)[C@H](NC(=O)[C@@H](N)Cc1ccc(O)cc1)C(=O)N[C@@H](Cc1ccccc1)C(=O)N[C@@H](CC(N)=O)C(=O)N[C@@H](CC(C)C)C(=O)O  IC50 (cell proliferation, tetrazolium): 0.00044 µM
C1=CCCC=CCC1.C1=CCCC=CCC1.[Cl][Hg-]([Cl])[Cl].[Cl][Hg-]([Cl])[Cl].[Pt+][c]1ccccc1P(=Nc1ccccc1)(c1ccccc1)c1ccccc1.[Pt+][c]1ccccc1P(=Nc1ccccc1)(c1ccccc1)c1ccccc1  IC50 (cell growth or viability, MTT; 24 h): 0.93 µM
C#CCCCC[C@H](C)C[C@@H](C)C(=O)N(C)[C@@H](C)C(=O)N1CCC[C@H]1C(=O)N(C)[C@H](C(=O)N(C)[C@H](C(=O)OC)C(C)C)C(C)C  IC50 (cell growth or viability, SRB): 1 µM
CC[C@H](C)[C@@H]([C@@H](CC(=O)N1CCC[C@H]1[C@H](OC)[C@@H](C)C(=O)N[C@H](C)[C@@H](O)c1ccccc1)OC)N(C)C(=O)[C@@H](NC(=O)[C@@H](NC)C(C)C)C(C)C  IC50 (cell growth or viability, MTT; 72 h): 0.00108 µM
COC(=O)[C@@H](NC(=O)[C@@H](NC(=O)[C@@H](NC(=O)[C@@H]1CCCN1C(=O)[C@H](C)NC(=O)OC(C)(C)C)C(C)C)C(C)C)C(C)C  IC50 (cell growth or viability, SRB): 21 µM
CC1(CCCOC2C(O)C(O)OC(CO)C2O)C(=O)[O][Pt][O]C1=O.NC1CCCCC1N (mixture of isomers)  IC50 (cell growth or viability, MTT): 3.4 µM
C/C1=C\CC[C@@]2(C)O[C@H]2[C@H]2OC(=O)C(C)[C@@H]2CC1 (some centres unmarked)  IC50 (cell growth or viability, resazurin): > 500 µM
CC1(CCCO[C@H]2O[C@H](CO)[C@@H](O)[C@H](O)[C@H]2O)C(=O)[O][Pt][O]C1=O.N[C@@H]1CCCC[C@H]1N  IC50 (cytotoxicity, MTT; 7.5 h plus 64 h recovery): 11 ± 1 µM
O=C(C[P+]([Au-][Cl])(c1ccccc1)c1ccccc1)[O][Ti+2][O]C(=O)C[P+]([Au-][Cl])(c1ccccc1)c1ccccc1.c1cc[cH-]c1.c1cc[cH-]c1  IC50 (cell viability, XTT; 24 h): 38.6 µM
CC1(CCCOC2C(O)OC(CO)C(O)C2O)C(=O)[O][Pt][O]C1=O.NC1CCCCC1N (mixture of isomers)  IC50 (cytotoxicity, MTT; 7.5 h plus 64 h recovery): 9 ± 0.5 µM
COC(=O)[C@H](C(C)C)N(C)C(=O)[C@H](C(C)C)N(C)C(=O)[C@@H]1CCCN1C(=O)[C@H](C)N(C)C(=O)OC(C)(C)C  IC50 (cell growth or viability, SRB): 3 µM

For quick reference, copied from above:
C#CCCCC[C@H](C)C[C@@H](C)C(=O)N(C)[C@@H](C)C(=O)N1CCC[C@H]1C(=O)N(C)[C@H](C(=O)N(C)[C@H](C(=O)OC)C(C)C)C(C)C  IC50 (cell growth or viability, SRB): 1 µM
C/C1=C\CC[C@@]2(C)O[C@H]2[C@H]2OC(=O)C(C)[C@@H]2CC1 (some centres unmarked)  IC50 (cell growth or viability, resazurin): > 500 µM
